{"data": "Published values pooled from the literature", "Nos1": "Nitric oxide synthase 1 (Nos1, Rattus norvegicus, UniProt P29476)", "EPHA4": "Ephrin type-A receptor 4 (EPHA4, Homo sapiens, UniProt P54764)", "note": "Compare with care: the assays were run in different laboratories. Several values in a cell are separate wells, animals, samples, runs or records. Numbers after ± are the reported error."}
{"Structure (SMILES)": "Cc1cc(N)nc(CC2CNCC2OCCNCC(F)(F)C2CCCCN2)c1 (stereo not drawn)", "target": "Nos1", "assay": "enzyme activity, inhibitor, hemoglobin capture", "Ki": "2700 nM"}
{"Structure (SMILES)": "COC(=O)C1(C)C=C(C(=O)OC(C)(C)C)C(=O)CC1 (stereo not drawn)", "target": "MAPK14 (Homo sapiens, UniProt Q16539)", "Ki": "1600 ± 200 nM"}
{"Structure (SMILES)": "Cc1ccc(/C=C/C(=N/NC(N)=O)c2ccccc2)cc1", "target": "cathepsin H (Capra hircus, UniProt A0A452G5L2)", "assay": "competitive inhibitor, Lineweaver-Burk plot", "test system": "goat liver enzyme", "setting": "pH 7.0, together with: Leu-βNA substrate", "Ki": "45000 ± 500 nM"}
{"Structure (SMILES)": "Nc1nc2c(ncn2[C@@H]2O[C@H](COP(=O)(O)OP(=O)(O)O[C@H]3O[C@@H](CNC(=O)C(c4ccccc4)C4CCCCC4)[C@@H](O)[C@@H](O)[C@@H]3F)[C@@H](O)[C@H]2O)c(=O)[nH]1 (stereo partly drawn)", "target": "FUT3 (Homo sapiens, UniProt P21217)", "assay": "enzyme activity, inhibitor", "Ki": "8800 nM"}
{"Structure (SMILES)": "N#Cc1ccc(S(=O)(=O)NCc2cn(CB(O)O)nn2)cc1", "target": "Beta-lactamase ADC-7 (Acinetobacter baumannii, UniProt Q6DRA1)", "assay": "enzyme activity, inhibitor", "setting": "together with: nitrocefin", "Ki": "840 ± 70 nM"}
{"Structure (SMILES)": "CC(C)C[C@H](NC(=O)N(CCCN)NC(=O)[C@H](Cc1ccc(O)cc1)NC(=O)CCCCCCC(=O)N[C@@H](Cc1ccc(O)cc1)C(=O)NN(CCCN)C(=O)N[C@@H](CC(C)C)C(=O)N[C@@H](CCCNC(=N)N)C(=O)N[C@@H](Cc1ccc(O)cc1)C(N)=O)C(=O)N[C@@H](CCCNC(=N)N)C(=O)N[C@@H](Cc1ccc(O)cc1)C(N)=O", "target": "NPY4R (Homo sapiens, UniProt P50391)", "Ki": "385 ± 127 nM"}
{"Structure (SMILES)": "Cc1cc(N)nc(C[C@@H]2CNC[C@@H]2OCCCCOc2cc(F)cc(Cl)c2)c1", "target": "Nos1", "assay": "enzyme activity, inhibitor", "setting": "pH 7.4", "Ki": "117 nM"}
{"Structure (SMILES)": "CNC(=O)C1CCN(c2ccccc2NC(=O)c2ccc(-c3ccccc3C)c(C)c2)CC1", "target": "EPHA4", "assay": "enzyme activity, inhibitor", "Ki": "39 nM"}
{"Structure (SMILES)": "Oc1c(C(Nc2nc3ccccc3s2)c2cccc(OCc3ccccc3)c2)ccc2cccnc12 (stereo not drawn)", "target": "Genome polyprotein, protease (Dengue virus type 2, UniProt P14340)", "assay": "enzyme activity, inhibitor", "Ki": "2360 nM"}
{"Structure (SMILES)": "CN(C)c1ccc2c(c1)C(=O)N([C@H](CS)C(=O)O)C2=O", "target": "Metallo-beta-lactamase type 2 (Serratia marcescens, UniProt P52699)", "assay": "enzyme activity, inhibitor", "setting": "Km 4.8 µM, together with: chromacef 25 µM", "Ki": "240 ± 30 nM"}
{"Structure (SMILES)": "OC[C@@H]1[C@@H](O)[C@H](O)[C@@H](O)CN1CCCCCOCC1CCCO1 (stereo partly drawn)", "target": "Beta-glucosidase (GBA2, Homo sapiens, UniProt Q9HCG7)", "assay": "enzyme activity, inhibitor", "test system": "HEK293T overexpressing homogenate", "setting": "together with: 4MU-β-D-glucopyranoside", "Ki": "177 nM"}
{"Structure (SMILES)": "COc1cc(Cc2cnc(N)nc2N)cc(/C=C/C(=O)N2N=Cc3ccccc3C2c2ccccc2C)c1OC (stereo not drawn)", "target": "Dihydrofolate reductase (Enterococcus faecalis, UniProt Q834R2)", "assay": "enzyme activity, inhibitor", "setting": "together with: dihydrofolate (Km 10.9 µM)", "Ki": "7.2 nM and > 5 nM"}
{"Structure (SMILES)": "CCN(CC)c1ccc2c(-c3ccc(S(=O)(=O)NCCCCCC(=O)NCc4ccccc4CC(O)CN4CCN(CCSC(c5ccc(F)cc5)c5ccc(F)cc5)CC4)cc3S(=O)(=O)[O-])c3ccc(=[N+](CC)CC)cc-3oc2c1 (stereo not drawn)", "target": "Slc6a4 (Rattus norvegicus, UniProt P31652)", "assay": "binding", "test system": "Sprague-Dawley rat", "Ki": "2920 ± 194 nM"}
{"Structure (SMILES)": "CNC(=O)C1CCN(c2ccccc2NC(=O)c2ccc(-c3c(C)ccc4[nH]ncc34)c(C)c2)CC1", "target": "EPHA4", "assay": "enzyme activity, inhibitor", "Ki": "9.7 nM"}
{"Structure (SMILES)": "CC[C@H](C)[C@H](NC(C)=O)C(=O)N[C@H](C(=O)N[C@H](C(=O)N[C@@H](CCCCN)C(=O)N[C@H](C=O)CC(=O)O)C(C)C)[C@@H](C)O", "target": "Caspase-6 (CASP6, Homo sapiens, UniProt P55212)", "assay": "enzyme activity, inhibitor, fluorescence", "setting": "pH 7", "Ki": "3310 nM"}
{"note": "Repeated from above:"}
{"Structure (SMILES)": "Nc1nc2c(ncn2[C@@H]2O[C@H](COP(=O)(O)OP(=O)(O)O[C@H]3O[C@@H](CNC(=O)C(c4ccccc4)C4CCCCC4)[C@@H](O)[C@@H](O)[C@@H]3F)[C@@H](O)[C@H]2O)c(=O)[nH]1 (stereo partly drawn)", "target": "FUT3 (Homo sapiens, UniProt P21217)", "assay": "enzyme activity, inhibitor", "Ki": "8800 nM"}
{"Structure (SMILES)": "N#Cc1ccc(S(=O)(=O)NCc2cn(CB(O)O)nn2)cc1", "target": "Beta-lactamase ADC-7 (Acinetobacter baumannii, UniProt Q6DRA1)", "assay": "enzyme activity, inhibitor", "setting": "together with: nitrocefin", "Ki": "840 ± 70 nM"}
